Assay results from different studies.
Each numbered part is a random draw from the data of one study; scales do not carry over between parts.

Study 1 — technique: protein-binding microarray; molecule type: double-stranded DNA, one strand shown; sample: in vitro; tested at: 0.8 µM; notes: whole 60-bp probe, no competitor; reading: higher = stronger binding; all sequences stand within: … GTCTTGATTCGCTTGACGCTGCTG
Target: Centromere-binding protein 1, full length, N-terminal tag (CBF1, Saccharomyces cerevisiae, UniProt P17106, residues 1-351)
UniProt P17106, sequence (whole entry, looked up): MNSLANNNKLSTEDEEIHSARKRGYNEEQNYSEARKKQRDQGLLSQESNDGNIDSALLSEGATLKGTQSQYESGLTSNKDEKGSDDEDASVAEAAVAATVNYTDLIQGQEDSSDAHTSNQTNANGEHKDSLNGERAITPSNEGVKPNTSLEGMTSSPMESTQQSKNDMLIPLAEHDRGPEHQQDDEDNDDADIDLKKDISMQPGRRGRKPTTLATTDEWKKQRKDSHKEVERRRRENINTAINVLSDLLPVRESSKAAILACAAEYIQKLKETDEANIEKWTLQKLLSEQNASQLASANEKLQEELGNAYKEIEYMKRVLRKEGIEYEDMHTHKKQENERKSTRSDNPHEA
Strand | fluorescence intensity [a.u.]
GAAATCGTTAAACGTGATATTCCTACTATGTTATAG | 977
CTAAGAACTTGAGCTAACATCACAGAACAAAGGTTC | 557
GAACTCATGGATCCTCGTGAGCAACATTTTCATTAG | 684
TGTACGAAGCTATTTCTCATGACTATAGTAGTTAGG | 538
GAATGTAATTGTCATCAGCTGTATACTGTTCGATAG | 558
GAACATTTGCTCTTTCATCAGACATTCTATATCTAG | 537
CTAGTAAAAACCTCTCACATGTTTTTCTCTGCTTTC | 786
GAACCCTGAAGGAGTTTCATGATGTATGGGTCTTAG | 523
GAAGTGCAGTAACTCCTCGTGCTTACGCTAACTTAG | 640
CCTAACTACTATACACATGACACATAGCTTCGTACA | 1170
GAAATACGTCTTTGGCACGCGATTGAAACGCGCTAG | 746
CTAGCATGTAGGAAGGTGATGATATGCTCCGTATTC | 498
CTACCATCATTTTGATCCGTGACATAGTAGGAATTC | 737
CTATTTTACCGTACGCACGTCATCGATGTATACTTC | 533
CCTAACTACTATAGTCAGCTGACATAGCTTCGTACA | 7090
CTATTAGTAGTGTATTATCACATGGTGTGTAAGTTC | 1990
GAAAATTACCATCATGACGTGCTCCTATCAAAGTAG | 561
CTAGGTGCATTACATCATGAAAGAGTATTATTATTC | 526
GAACCCATATGTGAACATCAGGGAATCTAATCTTAG | 471

Study 2 — technique: RNA Bind-n-Seq; molecule type: RNA; sample: in vitro; tested at: 1 µM; notes: whole 134-nt RNA, ends assumed; together with: 150 mM KCl; reference: input library; reading: higher = stronger binding
Target: Ras GTPase-activating protein-binding protein 1, C-terminal RGG region (G3BP1, Homo sapiens, UniProt Q13283)
UniProt Q13283, sequence (whole entry, looked up): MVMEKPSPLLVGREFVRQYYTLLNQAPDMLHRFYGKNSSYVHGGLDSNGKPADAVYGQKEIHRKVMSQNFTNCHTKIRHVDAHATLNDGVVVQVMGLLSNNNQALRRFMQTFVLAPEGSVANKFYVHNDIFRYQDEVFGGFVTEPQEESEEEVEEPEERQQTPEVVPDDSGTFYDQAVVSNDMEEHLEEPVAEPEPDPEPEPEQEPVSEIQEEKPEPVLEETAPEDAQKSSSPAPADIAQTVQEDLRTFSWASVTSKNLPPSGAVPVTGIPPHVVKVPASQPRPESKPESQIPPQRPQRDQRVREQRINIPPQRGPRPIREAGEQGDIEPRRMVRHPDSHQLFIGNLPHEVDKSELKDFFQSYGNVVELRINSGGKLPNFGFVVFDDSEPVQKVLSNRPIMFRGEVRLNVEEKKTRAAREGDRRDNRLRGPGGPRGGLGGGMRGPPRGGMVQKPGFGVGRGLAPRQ
All sequences stand within: GGGAGUUCUACAGUCCGACGAUC … UGGAAUUCUCGGGUGUCAAGG
Strand | log2 enrichment
AGUCCUGUGCUACACAUCGUAUGUACCGAAUCGGGUUUGGGUUUGGGUUUUUUUGGGAAAGUAUUAUGUUACGCCGUUCGGAUCUGCACU | 1.05
UUCUGACUCAGAAUGUGCCAAAAAGGCUUUGGAACAACUUAAUGGAUUUGAACUAGCAGGAAGACCAAUGAAAGUUGGUCAUGUUACUGA | -1.64
CAAGUCCUGUGCUACACAUCGUAUGUACCGAAUCGGGUUUUUUUGGGAGGGAGGGAAAGUAUUAUGUUACGCCGUUCGGAUCUGCACUUC | 1.42
UAACUUUAGAGGAGGAUCUGAUGGAUAUGGCAGUGGACGUGGAUUUGGGGAUGGCUAUAAUGGGUAUGGAGGAGGACCUGGAGGUGGCAG | -0.765
GCAGGAAGUAAAAACAAAUGGAAAUGCUUCGGAUAGUGGCAGGGUUGGGGGUUGCUAAGGAAAGGGUGGGAUGGGAGUGGGUAAAGAGUU | 1.52
UUCCUCAAGUCCUGUGCUACACAUCGUAUGUACCGAAUCGUGUGUGUGUGUAAAGUAUUAUGUUACGCCGUUCGGAUCUGCACUUCCAGC | -0.143
CAAGUCCUGUGCUACACAUCGUAUGUACCGAAUCGGAAAAAGGAAAAAAAGGAGGAAAGUAUUAUGUUACGCCGUUCGGAUCUGCACUUC | -1.83
CCUGUGCUACACAUCGUAUGUACCGAAUCGGCCCCCCCGGCCCCCCCGGGGCCCCCCCGGGAAAGUAUUAUGUUACGCCGUUCGGAUCUG | -1.22
UAACUUUAGAGGAGGAUCUGAUGGAUAUGGCAGUGGACGUGGAUUUGGGGAUGGCUAUAAUGGGUAUGGAGGAGGACCUGGAGGUAGCAA | -0.955

Study 3 — technique: RNA Bind-n-Seq; molecule type: RNA; sample: in vitro; tested at: 365 nM; reference: no-protein control; reading: higher = stronger binding
Target: RNA binding protein fox-1 homolog 2, RRM domain, GST-SBP tag (RBFOX2, Homo sapiens, UniProt O43251-10, residues 100-194)
Notes: natural RNA segment, single round, ends assumed
All sequences stand within: GGGAGUUCUACAGUCCGACGAUC … UGGAAUUCUCGGGUGCCAA
Construct (chain): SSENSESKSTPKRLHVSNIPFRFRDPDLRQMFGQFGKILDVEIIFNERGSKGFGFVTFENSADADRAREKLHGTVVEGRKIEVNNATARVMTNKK
Strand | RBNS enrichment (R)
GCUUAGUCCCAAGAAGAGGGUGAAGACUCGGCUGAGUCACUUGUGUGUGACCCCUACCAGAACAGAGACUUUCCUCCUCUUGAAGUUCUCUGAGGGGCGCCAUCUUGACC | 0.311
CACACAUCUUGAAAAAUAAAACGAUAAUAGAACUAGUGACUAAUUUUCCCUUACAGUUCCUGCUUGGUCCCACCCACUGAAGUAGCUCAUCGUAGUGCGGGCCGUAUUAG | 0.308
CUGUCUUGGAUACCUAUUUAAAUGUGUGUUCUGUUUUGUUUUUUAACGAUUUUUAAAUAACGUCUGUGCCUCCACUGGUUGAGGGUGGAACCUCCAGGCAGGAACCGGCU | 1.37
AAAAGAAAACAUAGGUCUCUUAAACCAGGCAACUUUCACGUUUUGGGAGUUGAGACUGAGCAAUUUCUCCUUGUAACAAAGAAUCUCCAUGAAAUUCUGUUUCAUCUGUU | 0.304
AGCAUUUAAUGGGAUUAGCUGUAGUCACUGCUUAUGGGAAGAACCUCAGAUCAGCCCCUUAAAAUGAGUUCUAGAGCAGGUCUUCUGUUCCAGAAGGGGAGAAGCAUAGA | 0.762
AGUGGGAAGAGAGUACCGGCAUCGGGUUUCCUUGGGAUCAAUUUCAUUACCGUGUACCUUUCCCAUUGUGGUCAUGCCAUUUGGCAGGGGGAGAAUGGGAGGCUUGGCCU | 0.436
GGUUCCCUGACAGCAGACAAGGCAGCUCUGGGAGGUAGCUAGUAUCCAAUAACCCAGGGGUUUCCUCAUGUGAUGCAAAUACUACGUGUCCAACCAAUCAGUGCUGUCAA | 0.417
UCAAUCAUGUACUUUAGUUUAAUGUAUAAAGAUUUUCUAGGAAAUGAUAUUGUGUAUUAAGACAUUCCUUAAUUAAAUUAGGACAAAAUGGCUGCUGUAUAUUUACAAUA | 0.32

Study 4 — Molecule: SAPSAPIRLPHTAALS; molecule type: peptide; reading: direction not given
target or system | assay | system | conditions | enrichment score
Saccharomyces cerevisiae | yeast growth, competitive growth deep sequencing | unfused Cln2 | peptide tiling library | 0.705
human cyclin B3-Cln2 fusion | yeast growth, competitive growth deep sequencing | Saccharomyces cerevisiae | peptide tiling library | 0.81
human cyclin D3-Cln2 fusion | yeast growth, competitive growth deep sequencing | Saccharomyces cerevisiae | peptide tiling library | 1.2
human cyclin B2-Cln2 fusion | yeast growth, competitive growth deep sequencing | Saccharomyces cerevisiae | peptide tiling library | 0.563
Saccharomyces cerevisiae | mating arrest growth, competitive growth deep sequencing | no Cln2 overexpression | peptide tiling library | -0.192
human cyclin A2-Cln2 fusion | yeast growth, competitive growth deep sequencing | Saccharomyces cerevisiae | peptide tiling library | 0.104
human cyclin A1 | cyclin docking binding, pooled competitive growth screen | yeast cyclin A1-Cln2 system | – | -0.166

Single results of other studies
Substance | target | assay | system | conditions | scale | endpoint | value
PhoQ, residues 284 288 289 292 302 303 TTSMTC | PhoP, residues 12 14 15 18 19 NHTVL (Escherichia coli, UniProt P23836) | Sort-seq, item: YFP reporter | E. coli | PhoQ-PhoP variant library, together with: 10 µM Mg2+ | reference: high Mg2+ state, higher = stronger signaling | fold induction | 23.9

Excerpt of the above (study 1):
Strand | fluorescence intensity [a.u.]
TGTACGAAGCTATTTCTCATGACTATAGTAGTTAGG | 538
CTAAGAACTTGAGCTAACATCACAGAACAAAGGTTC | 557
CCTAACTACTATAGTCAGCTGACATAGCTTCGTACA | 7090
GAACATTTGCTCTTTCATCAGACATTCTATATCTAG | 537
